Measured values collected from several papers.
Each line is one published result; not all experiments were run side by side. Values joined by “and” are separate records of one study, mostly repeats; a detail may differ. ± gives the spread as reported.
sdiA: Regulatory protein SdiA (sdiA, Escherichia coli, UniProt P07026)
UniProt P07026, sequence (whole entry, looked up): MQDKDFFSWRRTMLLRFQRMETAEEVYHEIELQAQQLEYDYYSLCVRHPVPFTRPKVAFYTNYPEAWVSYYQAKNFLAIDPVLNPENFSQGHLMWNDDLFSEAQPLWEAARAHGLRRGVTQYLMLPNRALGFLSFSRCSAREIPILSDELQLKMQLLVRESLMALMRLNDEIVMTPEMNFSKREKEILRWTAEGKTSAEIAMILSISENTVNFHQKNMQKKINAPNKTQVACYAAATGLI
KEAP1: Kelch-like ECH-associated protein 1 (KEAP1, Homo sapiens, UniProt Q14145)
UniProt Q14145, sequence (whole entry, looked up): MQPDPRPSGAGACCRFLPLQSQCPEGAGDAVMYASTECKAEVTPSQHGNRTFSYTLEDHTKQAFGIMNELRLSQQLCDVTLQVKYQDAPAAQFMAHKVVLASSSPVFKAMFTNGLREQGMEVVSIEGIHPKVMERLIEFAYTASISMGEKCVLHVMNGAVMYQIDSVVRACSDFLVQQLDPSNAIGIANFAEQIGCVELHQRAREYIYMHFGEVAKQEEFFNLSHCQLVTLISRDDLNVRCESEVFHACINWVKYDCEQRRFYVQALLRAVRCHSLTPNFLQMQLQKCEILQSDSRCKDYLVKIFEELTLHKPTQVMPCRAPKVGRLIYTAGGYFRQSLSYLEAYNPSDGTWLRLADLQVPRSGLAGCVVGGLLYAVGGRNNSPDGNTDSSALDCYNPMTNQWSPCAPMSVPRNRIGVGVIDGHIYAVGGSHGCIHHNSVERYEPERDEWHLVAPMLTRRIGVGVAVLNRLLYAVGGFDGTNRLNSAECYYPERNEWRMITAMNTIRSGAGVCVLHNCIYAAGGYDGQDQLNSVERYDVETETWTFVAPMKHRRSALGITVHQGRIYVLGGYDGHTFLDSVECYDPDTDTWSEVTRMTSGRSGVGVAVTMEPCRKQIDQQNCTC
Oprm1: Mu-type opioid receptor (Oprm1, Rattus norvegicus, UniProt P33535)
UniProt P33535, sequence (whole entry, looked up): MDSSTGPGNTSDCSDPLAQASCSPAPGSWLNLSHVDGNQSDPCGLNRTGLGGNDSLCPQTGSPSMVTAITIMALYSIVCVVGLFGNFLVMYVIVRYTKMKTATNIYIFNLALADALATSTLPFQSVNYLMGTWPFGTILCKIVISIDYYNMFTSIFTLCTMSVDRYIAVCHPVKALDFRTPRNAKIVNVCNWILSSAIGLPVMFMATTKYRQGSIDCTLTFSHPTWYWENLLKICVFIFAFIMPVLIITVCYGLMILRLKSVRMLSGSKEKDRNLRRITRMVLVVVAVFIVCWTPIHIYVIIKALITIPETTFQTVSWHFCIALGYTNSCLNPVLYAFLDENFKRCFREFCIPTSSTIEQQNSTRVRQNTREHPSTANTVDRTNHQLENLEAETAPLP
lasR: Transcriptional activator protein LasR (lasR, Pseudomonas aeruginosa, UniProt P25084)
Uncharacterized hydrolase SAUSA300_2518: Uncharacterized hydrolase SAUSA300_2518 (Staphylococcus aureus, UniProt Q2FDS6)
UniProt Q9Y2J8, sequence (whole entry, looked up): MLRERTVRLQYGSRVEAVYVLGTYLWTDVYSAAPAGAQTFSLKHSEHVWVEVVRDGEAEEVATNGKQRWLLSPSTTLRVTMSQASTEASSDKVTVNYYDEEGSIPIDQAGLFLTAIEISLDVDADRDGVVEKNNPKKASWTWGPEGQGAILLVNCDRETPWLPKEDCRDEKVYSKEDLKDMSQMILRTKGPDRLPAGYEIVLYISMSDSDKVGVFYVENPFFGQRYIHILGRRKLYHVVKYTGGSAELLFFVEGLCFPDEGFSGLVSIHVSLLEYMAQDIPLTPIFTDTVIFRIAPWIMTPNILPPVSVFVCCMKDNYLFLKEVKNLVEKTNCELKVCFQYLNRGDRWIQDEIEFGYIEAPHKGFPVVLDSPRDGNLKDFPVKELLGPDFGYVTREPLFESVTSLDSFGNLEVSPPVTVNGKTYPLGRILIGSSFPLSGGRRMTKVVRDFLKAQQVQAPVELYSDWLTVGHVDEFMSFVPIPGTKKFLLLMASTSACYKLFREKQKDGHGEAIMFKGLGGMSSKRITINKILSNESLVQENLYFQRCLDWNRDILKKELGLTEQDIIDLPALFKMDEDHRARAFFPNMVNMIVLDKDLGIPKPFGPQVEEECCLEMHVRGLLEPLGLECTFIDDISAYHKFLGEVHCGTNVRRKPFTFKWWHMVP
UniProt P08311, sequence (whole entry, looked up): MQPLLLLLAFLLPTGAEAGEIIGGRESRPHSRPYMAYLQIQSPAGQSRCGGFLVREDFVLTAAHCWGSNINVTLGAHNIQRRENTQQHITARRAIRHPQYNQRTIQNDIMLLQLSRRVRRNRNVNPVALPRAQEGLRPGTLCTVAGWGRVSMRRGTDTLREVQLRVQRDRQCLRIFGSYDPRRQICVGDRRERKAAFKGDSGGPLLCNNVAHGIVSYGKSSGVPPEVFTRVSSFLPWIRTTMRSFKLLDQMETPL
UniProt Q6NUM9, sequence (whole entry, looked up): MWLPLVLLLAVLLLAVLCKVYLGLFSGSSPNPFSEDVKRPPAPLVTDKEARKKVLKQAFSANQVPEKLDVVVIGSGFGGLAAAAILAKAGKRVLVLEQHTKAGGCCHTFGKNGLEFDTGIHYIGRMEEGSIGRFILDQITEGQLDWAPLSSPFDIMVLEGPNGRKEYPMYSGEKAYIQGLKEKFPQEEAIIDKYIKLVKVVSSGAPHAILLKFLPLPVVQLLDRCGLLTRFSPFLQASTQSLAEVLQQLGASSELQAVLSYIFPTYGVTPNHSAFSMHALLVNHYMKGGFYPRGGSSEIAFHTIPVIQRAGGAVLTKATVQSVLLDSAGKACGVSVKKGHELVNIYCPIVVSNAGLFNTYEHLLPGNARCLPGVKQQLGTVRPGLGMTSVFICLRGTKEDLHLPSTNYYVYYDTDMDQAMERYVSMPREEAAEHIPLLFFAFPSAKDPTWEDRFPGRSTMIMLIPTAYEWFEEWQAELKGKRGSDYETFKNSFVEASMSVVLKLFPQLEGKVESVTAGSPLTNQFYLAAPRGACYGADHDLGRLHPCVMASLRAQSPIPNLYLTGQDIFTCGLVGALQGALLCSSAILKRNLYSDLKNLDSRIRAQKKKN
UniProt P50395, sequence (whole entry, looked up): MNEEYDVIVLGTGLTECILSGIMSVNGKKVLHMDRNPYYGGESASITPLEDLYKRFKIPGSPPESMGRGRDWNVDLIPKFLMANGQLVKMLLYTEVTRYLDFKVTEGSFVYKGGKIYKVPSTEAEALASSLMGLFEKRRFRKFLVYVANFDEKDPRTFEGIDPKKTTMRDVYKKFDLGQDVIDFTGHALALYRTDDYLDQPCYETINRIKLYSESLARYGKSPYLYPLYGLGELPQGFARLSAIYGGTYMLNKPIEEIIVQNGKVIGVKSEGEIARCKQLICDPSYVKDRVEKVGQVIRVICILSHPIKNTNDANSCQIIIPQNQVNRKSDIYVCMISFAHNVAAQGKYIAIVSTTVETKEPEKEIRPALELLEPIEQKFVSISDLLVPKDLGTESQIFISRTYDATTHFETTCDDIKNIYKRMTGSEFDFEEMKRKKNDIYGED
UniProt P11309, sequence (whole entry, looked up): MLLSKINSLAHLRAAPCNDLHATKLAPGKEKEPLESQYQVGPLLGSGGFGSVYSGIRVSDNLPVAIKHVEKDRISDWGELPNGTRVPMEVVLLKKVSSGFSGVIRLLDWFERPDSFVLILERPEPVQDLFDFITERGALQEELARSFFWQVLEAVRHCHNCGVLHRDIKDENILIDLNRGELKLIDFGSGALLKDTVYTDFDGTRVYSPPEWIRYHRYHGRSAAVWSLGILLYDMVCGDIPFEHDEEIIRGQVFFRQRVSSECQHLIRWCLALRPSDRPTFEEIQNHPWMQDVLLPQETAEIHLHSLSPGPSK
UniProt P0A988, sequence (whole entry, unmodified, looked up): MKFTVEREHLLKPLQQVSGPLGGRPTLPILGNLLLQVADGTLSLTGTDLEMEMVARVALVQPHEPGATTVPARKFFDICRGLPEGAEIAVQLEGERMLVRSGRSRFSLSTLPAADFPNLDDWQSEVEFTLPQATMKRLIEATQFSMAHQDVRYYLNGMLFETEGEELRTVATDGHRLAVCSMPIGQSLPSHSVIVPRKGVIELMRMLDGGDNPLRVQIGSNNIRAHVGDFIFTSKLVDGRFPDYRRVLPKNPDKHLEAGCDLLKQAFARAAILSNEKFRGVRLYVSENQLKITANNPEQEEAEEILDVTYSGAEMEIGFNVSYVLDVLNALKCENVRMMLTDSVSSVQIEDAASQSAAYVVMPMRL
UniProt Q80UX8, sequence (whole entry, looked up): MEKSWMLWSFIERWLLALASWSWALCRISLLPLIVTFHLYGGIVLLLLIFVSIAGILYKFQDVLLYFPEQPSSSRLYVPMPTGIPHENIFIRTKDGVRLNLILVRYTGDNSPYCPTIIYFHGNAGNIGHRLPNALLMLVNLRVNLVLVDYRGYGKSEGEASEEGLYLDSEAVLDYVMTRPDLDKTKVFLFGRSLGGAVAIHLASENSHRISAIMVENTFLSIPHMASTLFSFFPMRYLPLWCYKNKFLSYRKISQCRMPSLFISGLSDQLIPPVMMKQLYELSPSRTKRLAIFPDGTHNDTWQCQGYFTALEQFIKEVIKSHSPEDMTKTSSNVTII
UniProt Q9WTL7, sequence (whole entry, looked up): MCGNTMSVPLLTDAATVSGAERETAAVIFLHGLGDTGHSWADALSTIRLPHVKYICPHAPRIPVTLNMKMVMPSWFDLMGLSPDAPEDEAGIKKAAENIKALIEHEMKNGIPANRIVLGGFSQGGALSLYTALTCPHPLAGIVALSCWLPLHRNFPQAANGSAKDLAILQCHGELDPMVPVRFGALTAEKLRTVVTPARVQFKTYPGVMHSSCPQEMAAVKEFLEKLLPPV

| SMILES | tested on | assay | system | conditions | scale | quantity | value |
| --- | --- | --- | --- | --- | --- | --- | --- |
| CN(/N=C/c1ccccc1C(=O)O)c1nc(-c2ccccc2Cl)cs1 | NPM1-ALK | enzyme activity | – | 1 µM | – | inhibition | 23.5% |
| N[C@H](C(=O)N1CCCC1)C1CCN(c2nccc3c(-c4ncc(Cl)cc4Cl)cccc23)CC1 | PADI2 (Homo sapiens, UniProt Q9Y2J8) | thermal shift | – | 0.09521 µM | – | melting temperature | 60.2 °C and 59.3 °C |
| CC[C@H](C)[C@@H]([C@@H](CC(=O)N1CCC[C@H]1[C@H](OC)[C@@H](C)C(=O)N[C@H](C)[C@@H](O)c1ccccc1)OC)N(C)C(=O)[C@@H](NC(=O)[C@H](C(C)C)N(C)C(=O)OCc1ccc(NC(=O)[C@H](CCCNC(N)=O)NC(=O)[C@@H](NC(=O)CCCCCN2C(=O)CC(SC[C@H](NC(=O)[C@H](CC(=O)O)NC(=O)[C@H](Cc3ccc(O)cc3)NC(=O)[C@H](Cc3c[nH]c4ccccc34)NC(=O)[C@@H](N)CCCNC(=N)N)C(=O)O)C2=O)C(C)C)cc1)C(C)C (stereo partly drawn) | – | – | C57BL/6 mouse, healthy, spleen | intraperitoneal, 2.5 mg/kg, 24 h | – | concentration | not detected |
| O=C(Cc1cccc(Br)c1)N[C@H]1CCOC1=O | sdiA | – | – | – | – | Emax | 115% |
| Cc1cc(C(=O)Nc2nc3cccc(C)c3n2[C@H]2CCCCN(C(=O)/C=C/CN(C)C)C2)ccn1 | Trypanosoma brucei | cell growth, Alamar Blue | 2T1 overexpressing Tb927.3.690 | – | relative to: parental 2T1 | EC50 fold shift | 0.97 fold and 1.31 fold |
| CC(C)CC(O)(CC(C)C)c1cn(C(=O)N2CCCC2)nn1 | Acyl-protein thioesterase 2 (Mus musculus, UniProt Q9WTL7) | – | mouse, brain | concentration not given | relative to: vehicle over compound | activity-based probe labelling ratio | 2.69 |
| CCCC(=O)N[C@H]1CCSC1=O | sdiA | – | – | – | – | Emax | 117% |
| NCCCO.O=C(O)C(Cl)Cl | Eclipta prostrata | – | – | 15 mg/mL, 21 days, post-emergence, greenhouse | – | herbicidal inhibition | 4% |
| CCOC(=O)[C@@H]1Cc2c(cc([N+](=O)[O-])cc2[N+](=O)[O-])[C@H](O)[C@]12C(=O)Nc1ccc(Br)cc12 | PDGFRA (Homo sapiens, UniProt P16234) | binding, competition with immobilised ligand | – | 0.1 µM | – | remaining binding | 100% |
| O=C1NC2(CC2)COc2ncc(F)cc2[C@H]2COCCN2c2ccn3ncc1c3n2 | – | – | Sprague-Dawley rat, female, adrenals | oral, 20 mg/kg/day, 4 weeks dosing, end of recovery | – | organ-to-brain weight ratio | 3.55 ± 0.35% |
| CN(C)[C@H]1C[C@@]23CC[C@@]4(O2)C(=CC[C@]2(C)[C@@H](c5ccc6ccncc6c5)CC[C@H]24)C=C3[C@@H](O)[C@@H]1O | MAPK9 (Homo sapiens, UniProt P45984) | ATP probe labelling, inhibitor, KiNativ profiling | – | 1 µM | – | inhibition | 7.9% |
| Nc1ncnc2c1ncn2[C@@H]1O[C@H](C[C@@H](N)CC[C@H](N)C(=O)O)[C@@H](O)[C@H]1O | O-methyltransferase (Sorghum bicolor, UniProt A0A1B6PFV1, W279A) | isothermal titration calorimetry | – | W279A mutant, together with: saturating resveratrol | – | cooperativity factor | 0.53 |
| Cc1cc(C)cc(COc2cc3c(cc2OCc2cc(C)cc(C)c2)C2CC(O)(Cc4cn(CCOCCOCCOCCOc5cccc6c5C(=O)N(C5CCC(=O)NC5=O)C6=O)nn4)CC(C)N2CC3)c1 (racemic) | Rab GDP dissociation inhibitor beta (Homo sapiens, UniProt P50395) | degrader, Western blot | PC-3 | 2 µM, 24 h | – | degradation | 3% |
| O=C(N1CCCCC1)n1ccnn1 | Protein ABHD13 (Abhd13, Mus musculus, UniProt Q80UX8) | probe labelling, inhibitor, competitive ABPP-SILAC, measured: Abhd13 | mouse T cells | concentration not given, 4 h, in situ, single peptide | relative to: treated over DMSO, lower = more inhibition | SILAC ratio | 0 |
| CS(C)(=O)=Nc1ccc(-c2ccc(-c3nc4cc(O[C@@H]5CO[C@H]6[C@@H]5OC[C@H]6O)[nH]c4cc3F)cc2)cc1 | FLT3 (Homo sapiens, UniProt P36888, D835Y) | enzyme activity, inhibitor | – | 10 µM | – | inhibition | -33% |
| CC(C)C[C@@H]1NC(=O)[C@H](C(C)C)NC(=O)[C@H](CCC(=O)O)NC(=O)CNC(=O)[C@H]([C@@H](C)O)NC(=O)[C@H](CCC(=O)O)NC(=O)[C@H](CCC(=O)O)NC(=O)[C@H](CC(=O)O)NC(=O)[C@H](C(C)C)NC(=O)[C@H]([C@@H](C)O)NC(=O)CNC(=O)[C@H](CC(=O)O)NC(=O)[C@@H]2CCCN2C1=O | KEAP1 | Keap1-Nrf2 binding, inhibitor, competitive FP | – | 0.0061 µM, 30 min, together with: Nrf2 peptide probe | lower = stronger inhibition | fluorescence polarization | 1.13 a.u. and 1.06 a.u. |
| CC[C@@H](C)[C@@H]1CN([C@@H](CC2CCCCC2)CN2CCC[C@H]2CN2CCNC[C@@H]2Cc2ccc3ccccc3c2)CCN1CCC12CC3CC(CC(C3)C1)C2 | Oprm1 | radioligand binding | rat brain membranes | 500 nM, pH 7.5, 25 °C, together with: 0.87 nM [3H]DAMGO | – | remaining binding | 103 ± 11.3% |
| O=C(CCc1ccc(C(F)(F)F)cc1)N[C@H]1CCOC1=O | lasR | reporter gene, agonist | – | – | relative to: EC50 PAO-JP2 over E. coli JLD271 | potency ratio | 220 |
| Cc1ccc(OS(=O)(=O)F)c(C(=O)Nc2ccncc2)c1 | Uncharacterized hydrolase SAUSA300_2518 | enzyme activity, inhibitor, fluorogenic substrate | – | 10 µM | – | remaining activity | 42.1% and 40.9% and 40.5% |
| N=C(N)NCCC[C@@H]1NC(=O)[C@H](CCCCNC(=O)CCC(NC(=S)Nc2ccc(CC3CN(CC(=O)O)CCN(CC(=O)O)CCN(CC(=O)O)CCN3CC(=O)O)cc2)C(=O)NCCCC[C@@H]2NC(=O)[C@@H](Cc3ccc(O)cc3)NC(=O)[C@H](CC(=O)O)NC(=O)CNC(=O)[C@H](CCCNC(=N)N)NC2=O)NC(=O)[C@@H](Cc2ccc(O)cc2)NC(=O)[C@H](CC(=O)O)NC(=O)CNC1=O (stereo partly drawn) [scandium-44 labelled] | – | ex vivo γ-counting | female athymic nude mice, U-87 MG xenograft, liver | intravenous, 4 h, together with: cRGD 50 mg/kg blocking | – | tissue uptake | 0.106 ± 0.027 %ID/g |

| SMILES | tested on | assay | system | conditions | scale | quantity | value |
| --- | --- | --- | --- | --- | --- | --- | --- |
| CCCCCCCCCC(=O)CC(=O)Nc1ccccc1O | lasR | reporter gene, agonist | – | – | relative to: EC50 PAO-JP2 over E. coli JLD271 | potency ratio | 180 |
| C[C@H](NCc1ccc(-c2ccc(C(F)(F)F)cc2)cc1)C(N)=O | Cathepsin G (CTSG, Homo sapiens, UniProt P08311) | enzyme activity | – | 1 µM, together with: 20.0 µM Suc-Ala-Ala-Pro-Phe-AMC | – | inhibition | 0% |
| CC(C)(C)C(=O)OCOP(=O)(OCOC(=O)C(C)(C)C)C1CCCN(O)C1=O (stereo not drawn) | ACHN | – | – | – | – | log GI50 | -6.47 log M |
| Oc1ccc(C[C@@H]2CN([C@H](Cc3ccc4ccccc4c3)CN3CCC[C@H]3CN3CCNC[C@@H]3Cc3ccc4ccccc4c3)CCN2CCc2ccc(Cl)c(Cl)c2)cc1 | Oprm1 | radioligand binding | rat brain membranes | 500 nM, pH 7.5, 25 °C, together with: 0.87 nM [3H]DAMGO | – | remaining binding | 114 ± 14.1% |
| O=C(N[C@@H]1c2ccccc2C[C@H]1N1CCCC1)c1ccc(-c2ccnc3[nH]ccc23)nc1 | Ribosomal protein S6 kinase alpha-6, N-terminal kinase domain (RPS6KA6, Homo sapiens, UniProt Q9UK32) | binding, competition with immobilised ligand | – | 3 µM | – | remaining binding | 19% |
| CCCCCC(=O)CC(=O)N[C@H]1CCOC1=O | lasR | reporter gene, agonist | Escherichia coli JLD271 | 10 µM, pSC11 and pJN105L plasmids | relative to: OdDHL at same concentration | agonist activity | 61% |
| O=C1NC(=O)c2c1c1cc(F)c[n+]3c1c1c2c2cc(O)ccc2[n]1[Ru-4]312([N]=C=S)[S+]3CC[S+]1CC[S+]2CC3 (stereo not drawn) | PIM1 (Homo sapiens, UniProt P11309) | enzyme activity | – | 100 nM, human enzyme, together with: 10 µM ATP | relative to: untreated | remaining activity | 1% |
| CC(C)[C@H]1NC(=O)C[C@H]2/C=C/CCSSC[C@@H](NC1=O)C(=O)N[C@H](Cc1cccc3ccccc13)C(=O)NCC(=O)O2 | PRKG2 (Homo sapiens, UniProt Q13237) | enzyme activity, inhibitor | – | 10 µM | – | inhibition | -0.369% |
| C=CC(=O)NC[C@H](NC(=O)[C@H](CC1CCCCC1)NC(=O)[C@H](CCC(N)=O)NC(C)=O)C(=O)N[C@@H](CC(C)C)C(=O)N[C@@H](Cc1ccccc1)C(=O)O | Beta sliding clamp (Escherichia coli, UniProt P0A988) | binding, isothermal titration calorimetry | – | pH 7.4, 22 °C | – | ΔH | -11.5 kcal/mol |
| COc1ccccc1-c1n[nH]c2nc(NC3CCN(C(=O)Cc4ccc(F)cc4F)CC3)ncc12 | Leishmania donovani succinyl-CoA synthetase alpha (LINJ.25.2230) | bead binding competition | Leishmania donovani extract | 10 µM | relative to: vehicle | relative abundance | 0.91 |
| Nc1ccc(/C=C/C(=O)N2CCc3c(oc4c(-c5ccc(F)cc5)cc(-c5ccc(C(=O)N6CCC(F)(F)CC6)cn5)cc34)C2)cn1 | FGFR2 (Homo sapiens, UniProt P21802) | binding, competition with immobilised ligand | – | 1 µM | – | remaining binding | 100% |
| CC[C@H](C)[C@H](NC(=O)[C@H](CO)NC(=O)[C@H](Cc1ccc(O)cc1)NC(=O)[C@H](Cc1ccc(O)cc1)NC(=O)[C@H](CC(N)=O)NC(=O)CNC(=O)[C@H](CO)NC(=O)[C@H](Cc1ccc(O)cc1)NC(=O)[C@H](CO)NC(=O)[C@H](CO)NC(=O)[C@H](CC(N)=O)NC(=O)COCCOCCNC(=O)CN1CCN(CC(=O)O)CCN(CC(=O)O)CCN(CC(=O)O)CC1)C(=O)N[C@@H](CC(C)C)C(N)=O [copper-64 labelled] | – | dynamic PET | tamoxifen-induced PDAC mouse model, pancreas | 27.5 min, CLDN4-expressing tumours | – | maximum pancreas uptake | 15.5 %IA/cc |
| CC(C)[C@@H]1NC(=O)[C@H](CCC(=O)O)NC(=O)CNC(=O)[C@H]([C@@H](C)O)NC(=O)[C@H](CCC(=O)O)NC(=O)[C@H](CCC(=O)O)NC(=O)[C@H](CC(=O)O)NC(=O)[C@H](C(C)C)NC(=O)[C@H]([C@@H](C)O)NC(=O)CNC(=O)[C@H](CC(=O)O)NC(=O)[C@H](CC(N)=O)NC(=O)[C@H](Cc2ccc(O)cc2)NC1=O | KEAP1 | Keap1-Nrf2 binding, inhibitor, competitive FP | – | 0.0977 µM, 30 min, together with: Nrf2 peptide probe | lower = stronger inhibition | fluorescence polarization | 0.434 a.u. and 0.617 a.u. |
| C#CCCCCOc1ccc2c(c1)CCCN2C(=O)CCl | All-trans-retinol 13,14-reductase (RETSAT, Homo sapiens, UniProt Q6NUM9) | mass spectrometry profiling, measured: RETSAT | H460 cell lysate | 100 µM over 10 µM, UniProt Q6NUM9 | relative to: high over low concentration | reactivity ratio | 1.44 |
| Oc1ccc(C[C@@H]2CN([C@H](Cc3ccc4ccccc4c3)CN3CCC[C@H]3CN3CCNC[C@@H]3Cc3ccc4ccccc4c3)CCN2CCCC2CCCC2)cc1 | Oprm1 | radioligand binding | rat brain membranes | 500 nM, pH 7.5, 25 °C, together with: 0.87 nM [3H]DAMGO | – | remaining binding | 107 ± 5.22% |
| CSCC[C@@H]1NC(=O)[C@H](Cc2ccccc2)NC(=O)[C@@H](NC(=O)[C@H](C)N)CSC(=O)[C@H](C)NC(=O)[C@H](Cc2ccccc2)NC1=O | Histidine kinase AgrC (Listeria monocytogenes, UniProt A8E0G3) | reporter gene, agonist, agr GFP reporter | – | – | relative to: native 6-mer AIP | EC50 ratio | 8 fold |
| O=C(Nc1ccccc1NC(=O)c1cccc(Cl)c1)c1cccc(Cl)c1 | lasR | reporter gene, agonist | Escherichia coli JLD271 | 10 µM, pSC11 and pJN105L plasmids | relative to: OdDHL at same concentration | agonist activity | 0% |
| CN(C)CCCSC(=S)N1CCN(C(=O)/C=C/c2coc3ccccc3c2=O)CC1 | Nucleoprotein (N, Tomato spotted wilt virus, UniProt P25999, Y184A) | binding, microscale thermophoresis | – | 125 µM | dose series | MST response | 849 a.u. |
| COc1cc2c(cc1S(=O)(=O)F)C(=O)NCCC2 | Uncharacterized hydrolase SAUSA300_2518 | enzyme activity, inhibitor, fluorogenic substrate | – | 1 µM | – | remaining activity | 94.4% and 90.5% and 96.1% |

For quick reference, copied from above:
| SMILES | tested on | assay | system | conditions | scale | quantity | value |
| --- | --- | --- | --- | --- | --- | --- | --- |
| CCCCCC(=O)CC(=O)N[C@H]1CCOC1=O | lasR | reporter gene, agonist | Escherichia coli JLD271 | 10 µM, pSC11 and pJN105L plasmids | relative to: OdDHL at same concentration | agonist activity | 61% |
| Cc1cc(C(=O)Nc2nc3cccc(C)c3n2[C@H]2CCCCN(C(=O)/C=C/CN(C)C)C2)ccn1 | Trypanosoma brucei | cell growth, Alamar Blue | 2T1 overexpressing Tb927.3.690 | – | relative to: parental 2T1 | EC50 fold shift | 0.97 fold and 1.31 fold |
